Published values gathered from unrelated publications.
A part holds a random share of what one study measured.

Sample 1
Target: RNA binding protein fox-1 homolog 2, RRM domain, GST-SBP tag (RBFOX2, Homo sapiens, UniProt O43251-10, residues 100-194)
Method: RNA Bind-n-Seq
Molecule type: RNA
Matrix: in vitro
Concentration: 365 nM
Notes: natural RNA segment, single round, ends assumed
Relative to: no-protein control
Reading: higher = stronger binding
Quantity: RBNS enrichment (R)
Target sequence (chain): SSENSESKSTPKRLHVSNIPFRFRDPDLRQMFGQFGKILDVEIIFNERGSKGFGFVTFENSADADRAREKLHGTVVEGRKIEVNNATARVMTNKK
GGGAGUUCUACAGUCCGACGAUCAGAAGUAAAGUUUAUUUCAUGGAUUAUUUAUGAGAGCUAAUUUAAGGAUGACUUUUUUUCUGAUUCAAAAGUGAACUUGAUUUUAAAAACCAGUCAAGAGCAAUCAAAGCUGGAAUUCUCGGGUGCCAA: 0.476
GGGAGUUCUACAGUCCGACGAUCAAUCCUCCUAGGACAGGAGUUUGUUUCCUGAGUGUGGAGUGAGGCUGUCAGUGGAUCCGUGCUUUGUCGGCCAGCGUUUCUGCAGUCUUUGUAAAGGCCCCACGAGAGCGUGGAAUUCUCGGGUGCCAA: 0.451
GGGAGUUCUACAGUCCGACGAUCCCUGCCUUGCUGUUCCUGGGAAGAUGCCAUAGUUUUCGUUACUGGAUGUUUGGAGUAGAUACUGGUCUGUGAUUGGUGGAAUGGAGAACACACGUGUUGGUGCUUCUGGGUGGAAUUCUCGGGUGCCAA: 1.31
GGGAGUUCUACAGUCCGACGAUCCCCACUUAAUGCGUUGGAUAUGAUUUUUCAAAGAAUGCUUCAUGCCCAAAAUACCAGCCUGUUUAGCAGUGUUACACUGUUUGAUCUGCGGGCACUUGUUGCAUUGCCUGUGGAAUUCUCGGGUGCCAA: 0.69
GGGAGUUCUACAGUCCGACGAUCUAUUUCAAUAACAAAUGGUGCUGCUAACACCCAACAUUUCCUAAAUUAUUUUCUAUCAUACAGUUUUCAUUGGUUAUAUGAGUAUGUCUACCCAAUAAAUCACUGAAUUUUGGAAUUCUCGGGUGCCAA: 0.627
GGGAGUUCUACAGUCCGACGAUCGCGUUGUAGAAGAAGUGAGAUGUAGUAAGCUAAUUAACAGACUUUCUAGCAGUUCUUUUUGUGAUGUCUCUUUGUUAAUCUGAGUCUAUCUAUUUUCGGCAAUAAGGUAAUGGAAUUCUCGGGUGCCAA: 0.738
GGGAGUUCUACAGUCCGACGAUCCUGUAUGUGGUGUCUAACAUCUACAAGGUGGGGGCUGGAGAAGUGGCUUGGUGCUCAAAGGCACUUGCUGCUCUUGCAGAAGGCCAAAAGAUGUGAUUUAGUUCCUAGCCUGGAAUUCUCGGGUGCCAA: 0.312
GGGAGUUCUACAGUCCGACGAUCGAGCACAGUGUCUCCAAGCCCAUCUGGUUUUUUACACUGUUUGUUAAUAAACCCUGAAACUUCUGUGUGCCUGUCUCCUGUCUGAUGCAUUUUCCAGCUGCUCUCUCCAGUGGAAUUCUCGGGUGCCAA: 0.698
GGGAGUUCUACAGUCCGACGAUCAAAAAAGAUGGAUUUCUGCUGUCUUUUGGCCCCUAGUUCCUUGGAAGGGCAAAGGCUAUGAGGUAGAGGGAGGUGACAGGCAUUGCAGGUGGCAGACUGACUUUGGACAGUGGAAUUCUCGGGUGCCAA: 0.887
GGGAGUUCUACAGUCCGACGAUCCUGCUCGGGCUGUUUGCUGUUGGCUGGUAAUAAUAUAUUUGAUUUAAAUGCUGUUGACUGUGCUAUUAACUGCUGCCGUCAGUAAACUCCAAAGAUCUUUUUGUUUUGGCUGGAAUUCUCGGGUGCCAA: 0.801
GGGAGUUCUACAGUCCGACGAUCUCUUUGUUCUCCCUCACUCUGCCCUUAGUUAAUAGAAAUUCAGACUCGCCAAGUAAGGCUUCGUGCAUAGUGUCUUCAUGUCGCGUAUAGUUGAGCGCGUUCUUAGCAGUUGGAAUUCUCGGGUGCCAA: 0.797
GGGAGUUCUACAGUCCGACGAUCGUAGAAUUACACGAUAAGCAAUGGUCAGACUUUCCUUCUGUGGAUCCUUAUGCCAAUUCAGCUACUAAUCGGUCAUUCAUAAAUGGUGAUUAAAAUGAUCAGGUAAUUUUUGGAAUUCUCGGGUGCCAA: 0.388

Sample 2
Target: Ras GTPase-activating protein-binding protein 1, C-terminal RGG region (G3BP1, Homo sapiens, UniProt Q13283)
UniProt Q13283, sequence (whole entry, looked up): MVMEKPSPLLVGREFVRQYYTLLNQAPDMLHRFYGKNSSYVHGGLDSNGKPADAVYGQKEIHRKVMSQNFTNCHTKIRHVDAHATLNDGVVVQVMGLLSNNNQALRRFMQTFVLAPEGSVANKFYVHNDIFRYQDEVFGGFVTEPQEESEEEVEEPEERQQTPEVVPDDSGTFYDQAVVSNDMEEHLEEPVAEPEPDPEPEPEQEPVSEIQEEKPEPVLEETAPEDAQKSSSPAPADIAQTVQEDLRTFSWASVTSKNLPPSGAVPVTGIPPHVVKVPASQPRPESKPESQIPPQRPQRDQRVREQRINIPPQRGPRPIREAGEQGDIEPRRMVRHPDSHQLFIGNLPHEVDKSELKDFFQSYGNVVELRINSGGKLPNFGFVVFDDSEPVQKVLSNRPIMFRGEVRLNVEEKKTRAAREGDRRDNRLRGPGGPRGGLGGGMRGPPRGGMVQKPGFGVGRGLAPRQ
Method: RNA Bind-n-Seq
Molecule type: RNA
Matrix: in vitro
Concentration: 1 µM
Notes: whole 134-nt RNA, ends assumed
With: 150 mM KCl
Relative to: input library
Reading: higher = stronger binding
Quantity: log2 enrichment
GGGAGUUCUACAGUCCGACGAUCUGUGCUACACAUCGUAUGUACCGAAUCGGGGUUUUUUUGGGGUUUUUUUGGGGAAAAAGGGGAAAGUAUUAUGUUACGCCGUUCGGAUCUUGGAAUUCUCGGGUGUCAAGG: -0.251
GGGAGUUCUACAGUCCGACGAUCUAACUUUAGAGGAGGAUCUGAGGGAUAUGGCAGUGGACGUGGAUUUGGGGAUGGCUAUAAUGGGUAUGGAGGAGGACCUGGAGGUGGCAAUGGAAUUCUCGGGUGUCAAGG: 0.559
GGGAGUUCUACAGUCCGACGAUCCACAGACAACACGCACCCACACAGACACAGAGGGAAGGGGUUGGGAUGGGGACAGGGUGCACAGCAGGGCGGGGUAGGACCCCCGCCCCUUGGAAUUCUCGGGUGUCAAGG: -1.04
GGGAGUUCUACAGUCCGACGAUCAGUCCUGUGCUACACAUCGUAUGUACCGAAUCGGGGAAAAGGGGAAAAGGGAAAAGGGAAAGUAUUAUGUUACGCCGUUCGGAUCUGCACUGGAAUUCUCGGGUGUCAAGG: 0.891
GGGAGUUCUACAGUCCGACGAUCUGCGGGCGGCUGAGACGCCGCCUGCCUGGCACCUAGGAGCGCAGCGGAGCCCCGACACCGCCGCCGCCGCCAUGGAGUCCGAGACCGAACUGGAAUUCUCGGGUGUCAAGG: -0.0686
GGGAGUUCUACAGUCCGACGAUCCCUGUGCUACACAUCGUAUGUACCGAAUCGGGGUUUUUUGGGGUUUUUUGGGUUUUUUGGAAAGUAUUAUGUUACGCCGUUCGGAUCUGCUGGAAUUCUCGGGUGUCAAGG: -1.16
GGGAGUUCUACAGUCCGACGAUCUCCUGUGCUACACAUCGUAUGUACCGAAUCGGUUUUUUGGGUUUUUUGGGGUUUUUUGGGAAAGUAUUAUGUUACGCCGUUCGGAUCUGCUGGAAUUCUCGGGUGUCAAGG: -0.579
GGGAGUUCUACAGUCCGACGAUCUGUUGUCUGGGUUUGGGGGUCGAGUAGAUGCGGGGCAGCCGGAGCUGUUGACGGAAAGGAGUAGCCCCAAAGGAGGGCAUGUGAAGUCGCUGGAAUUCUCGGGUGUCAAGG: -0.908
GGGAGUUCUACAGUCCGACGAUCGUCCUGUGCUACACAUCGUAUGUACCGAAUCGGGCCCCCGGCCCCCGGGGCCCCCGGGAAAGUAUUAUGUUACGCCGUUCGGAUCUGCACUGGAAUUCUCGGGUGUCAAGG: -1.8
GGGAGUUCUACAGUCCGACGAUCCUCAAGUCCUGUGCUACACAUCGUAUGUACCGAAUCGGAAAAAAAGGUGGAGGAAAGUAUUAUGUUACGCCGUUCGGAUCUGCACUUCCAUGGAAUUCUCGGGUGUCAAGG: -1.24
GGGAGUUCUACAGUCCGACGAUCUCAAGUCCUGUGCUACACAUCGUAUGUACCGAAUCGGGGUUGGGGUUGGGGUUGGAAAGUAUUAUGUUACGCCGUUCGGAUCUGCACUUCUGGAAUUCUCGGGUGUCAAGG: 0.251
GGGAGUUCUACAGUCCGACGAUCAGUCCUGUGCUACACAUCGUAUGUACCGAAUCGGGGUUUUUGGUUUUUGGUUUUUGGAAAGUAUUAUGUUACGCCGUUCGGAUCUGCACUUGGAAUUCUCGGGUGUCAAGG: -1.66
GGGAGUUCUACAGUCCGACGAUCCCUGUGCUACACAUCGUAUGUACCGAAUCGGGGCCCCCCCGGCCCCCCCGGCCCCCCCGGAAAGUAUUAUGUUACGCCGUUCGGAUCUGCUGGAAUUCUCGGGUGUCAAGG: -1.36
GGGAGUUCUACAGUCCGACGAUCACCAUGCAGGUGGGCAUCUUUGGGAAGGGGGGCAAGGGGGGGAUAGGGAGGGGGGUAACACUUUGGGAACAGGUGGUCCCAGGUCGUUUCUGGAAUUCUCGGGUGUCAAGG: -1.17

Sample 3
Target: Interferon regulatory factor 7, full length, phosphomimetic (IRF7, Homo sapiens, UniProt Q92985, residues 1-503, S471D/S472D/S475D/S476D/S477D/S483D/S484D/S487D)
Method: protein-binding microarray
Molecule type: double-stranded DNA, one strand shown
Matrix: in vitro
Concentration: 2200 nM top
Notes: 60-bp whole probe
With: salmon DNA 0.4 mg/ml
Relative to: random background probes
Reading: higher = stronger binding
Quantity: fitted relative affinity
All sequences stand within: GCCTAGCAC … GTCTTGATTCGCTTGACGCTGCTG
Target sequence (chain): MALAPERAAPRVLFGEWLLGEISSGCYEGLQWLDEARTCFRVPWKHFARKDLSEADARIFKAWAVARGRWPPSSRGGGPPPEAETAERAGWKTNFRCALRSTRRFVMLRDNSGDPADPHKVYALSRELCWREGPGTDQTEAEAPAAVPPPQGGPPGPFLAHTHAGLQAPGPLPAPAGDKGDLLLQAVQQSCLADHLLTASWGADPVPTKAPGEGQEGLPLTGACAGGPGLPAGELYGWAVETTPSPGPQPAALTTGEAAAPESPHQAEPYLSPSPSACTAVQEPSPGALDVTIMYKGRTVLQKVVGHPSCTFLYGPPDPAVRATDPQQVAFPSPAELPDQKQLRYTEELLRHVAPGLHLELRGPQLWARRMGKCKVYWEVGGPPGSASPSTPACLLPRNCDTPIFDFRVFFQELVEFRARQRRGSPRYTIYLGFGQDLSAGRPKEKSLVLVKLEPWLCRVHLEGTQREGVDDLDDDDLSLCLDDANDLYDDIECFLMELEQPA
TATTTTGGAAACTCACAACAGTGCTAG: 0.352 z-score
TCATCTGTCCGTGCTCAGACTGTGCTA: 1.24 z-score
TTAGGTCTCGGGCTGGGTTAGTGCTAG: -0.345 z-score
GACGGTTCCGGTTTTGGGACGTGCTAG: 2.63 z-score
GACGATATCGGTTTCGGGACGTGCTAG: 3.92 z-score
GACGGTCTCTGTCTCGGGACGTGCTAG: 0.0446 z-score
GAAGATTTCGGGACTGGAGACGTGCTA: 0.654 z-score
GACGGTATCGGTATCGAGACGTGCTAG: 0.205 z-score
GACGCTATCGGTATCGGGACGTGCTAG: 0.707 z-score
GACGGTTTGGACACTGGGGACGTGCTA: 0.144 z-score
GACGGTTTCCTTTTCCAGACGTGCTAG: 5.46 z-score
TGGCAGCATTCTTGGAAATCGTGCTAG: -0.528 z-score
TCACAATTTGCTTTAGTACTGTGCTAG: 1.21 z-score
TCATTTTTTTTTTCTGAACTGTGCTAG: 2.22 z-score
TTAGGACTGGGTTTTGGTTAGTGCTAG: 0.218 z-score
GACGCTCTCAGACTGGAGACGTGCTAG: -0.00745 z-score

Sample 4
Target: Sal-like protein 4, full length isoform A (SALL4, Homo sapiens, UniProt Q9UJQ4, residues 1-1053)
UniProt Q9UJQ4, sequence (whole entry, looked up): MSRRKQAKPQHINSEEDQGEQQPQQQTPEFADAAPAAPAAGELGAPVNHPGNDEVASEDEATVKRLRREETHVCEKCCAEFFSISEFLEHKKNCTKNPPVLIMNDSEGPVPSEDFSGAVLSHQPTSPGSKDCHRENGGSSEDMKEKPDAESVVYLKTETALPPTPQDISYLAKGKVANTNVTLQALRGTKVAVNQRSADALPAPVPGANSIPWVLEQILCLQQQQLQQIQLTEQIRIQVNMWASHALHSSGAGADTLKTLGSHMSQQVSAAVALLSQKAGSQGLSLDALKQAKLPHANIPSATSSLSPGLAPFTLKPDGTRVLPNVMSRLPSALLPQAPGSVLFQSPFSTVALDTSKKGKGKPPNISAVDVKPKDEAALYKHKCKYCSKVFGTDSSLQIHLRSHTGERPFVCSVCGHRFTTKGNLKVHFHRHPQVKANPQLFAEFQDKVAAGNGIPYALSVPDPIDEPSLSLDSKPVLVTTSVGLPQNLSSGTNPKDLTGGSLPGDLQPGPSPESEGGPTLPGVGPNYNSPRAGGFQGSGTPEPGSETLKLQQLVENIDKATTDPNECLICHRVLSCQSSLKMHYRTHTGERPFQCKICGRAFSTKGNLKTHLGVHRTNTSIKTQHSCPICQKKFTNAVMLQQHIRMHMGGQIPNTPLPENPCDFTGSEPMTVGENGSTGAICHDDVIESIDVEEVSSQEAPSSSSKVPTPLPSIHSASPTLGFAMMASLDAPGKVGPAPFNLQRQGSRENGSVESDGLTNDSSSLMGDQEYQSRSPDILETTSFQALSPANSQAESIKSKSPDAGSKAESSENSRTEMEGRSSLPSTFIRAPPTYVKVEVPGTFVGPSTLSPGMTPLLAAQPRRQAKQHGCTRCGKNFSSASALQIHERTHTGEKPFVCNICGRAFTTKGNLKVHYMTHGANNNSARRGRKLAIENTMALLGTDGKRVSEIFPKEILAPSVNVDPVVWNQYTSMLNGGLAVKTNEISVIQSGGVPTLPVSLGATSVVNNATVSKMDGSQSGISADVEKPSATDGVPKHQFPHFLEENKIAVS
Method: universal PBM
Molecule type: double-stranded DNA, one strand shown
Matrix: in vitro
Concentration: 600 nM
Notes: 8-mer, flanks averaged, mean of replicates
Reading: higher = stronger binding
Quantity: E-score
TGGTAACA: 0.117
CCTTTAAC: 0.107
GGTACTAC: 0.03
AGGAGACT: -0.111
AAGTGTTA: 0.223
GATATTCC: 0.187
ATGGTGTC: 0.0105
CGGCGCAG: -0.267
CAGGTCGG: -0.309
CGACACTC: -0.111
CCAATATC: 0.176
TAGCACTA: 0.093
AGTCAGGA: -0.118
CAAAAGTC: 0.00133
GGCAAAAA: 0.165
AGTGCCTC: -0.221
ATTAGAAC: 0.263
AGCAATTG: 0.153
ACTTGCGG: -0.223
GCCAGCAA: -0.213
TATACTCA: 0.249
AATGGTCA: 0.138
AGCGCCCA: -0.299
CTAACTGC: -0.179
ACTGTTAA: 0.179

Excerpt of the above (sample 1):
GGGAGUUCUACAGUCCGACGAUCCCCACUUAAUGCGUUGGAUAUGAUUUUUCAAAGAAUGCUUCAUGCCCAAAAUACCAGCCUGUUUAGCAGUGUUACACUGUUUGAUCUGCGGGCACUUGUUGCAUUGCCUGUGGAAUUCUCGGGUGCCAA: 0.69
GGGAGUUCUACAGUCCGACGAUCUAUUUCAAUAACAAAUGGUGCUGCUAACACCCAACAUUUCCUAAAUUAUUUUCUAUCAUACAGUUUUCAUUGGUUAUAUGAGUAUGUCUACCCAAUAAAUCACUGAAUUUUGGAAUUCUCGGGUGCCAA: 0.627
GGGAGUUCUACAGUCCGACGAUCGCGUUGUAGAAGAAGUGAGAUGUAGUAAGCUAAUUAACAGACUUUCUAGCAGUUCUUUUUGUGAUGUCUCUUUGUUAAUCUGAGUCUAUCUAUUUUCGGCAAUAAGGUAAUGGAAUUCUCGGGUGCCAA: 0.738
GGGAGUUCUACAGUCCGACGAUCCUGUAUGUGGUGUCUAACAUCUACAAGGUGGGGGCUGGAGAAGUGGCUUGGUGCUCAAAGGCACUUGCUGCUCUUGCAGAAGGCCAAAAGAUGUGAUUUAGUUCCUAGCCUGGAAUUCUCGGGUGCCAA: 0.312
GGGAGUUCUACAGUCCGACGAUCGAGCACAGUGUCUCCAAGCCCAUCUGGUUUUUUACACUGUUUGUUAAUAAACCCUGAAACUUCUGUGUGCCUGUCUCCUGUCUGAUGCAUUUUCCAGCUGCUCUCUCCAGUGGAAUUCUCGGGUGCCAA: 0.698
